Measurements collected from several papers.
Numbers after ± are the reported error.
NCEH1: Neutral cholesterol ester hydrolase 1 (NCEH1, Homo sapiens, UniProt Q6PIU2)
Sequence of UniProt Q6PIU2 (whole entry, looked up): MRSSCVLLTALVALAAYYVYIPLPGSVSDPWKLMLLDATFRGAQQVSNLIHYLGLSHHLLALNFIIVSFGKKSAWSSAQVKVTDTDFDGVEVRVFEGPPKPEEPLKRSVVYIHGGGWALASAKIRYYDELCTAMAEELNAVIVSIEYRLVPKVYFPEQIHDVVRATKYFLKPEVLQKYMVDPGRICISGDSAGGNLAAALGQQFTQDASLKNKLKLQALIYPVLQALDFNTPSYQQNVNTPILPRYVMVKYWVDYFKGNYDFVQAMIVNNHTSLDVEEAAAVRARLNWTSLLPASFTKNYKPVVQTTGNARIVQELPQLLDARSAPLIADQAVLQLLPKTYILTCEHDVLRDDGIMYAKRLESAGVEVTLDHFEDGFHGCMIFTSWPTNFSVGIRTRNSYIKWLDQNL
Sequence of UniProt Q8IY84 (whole entry, looked up): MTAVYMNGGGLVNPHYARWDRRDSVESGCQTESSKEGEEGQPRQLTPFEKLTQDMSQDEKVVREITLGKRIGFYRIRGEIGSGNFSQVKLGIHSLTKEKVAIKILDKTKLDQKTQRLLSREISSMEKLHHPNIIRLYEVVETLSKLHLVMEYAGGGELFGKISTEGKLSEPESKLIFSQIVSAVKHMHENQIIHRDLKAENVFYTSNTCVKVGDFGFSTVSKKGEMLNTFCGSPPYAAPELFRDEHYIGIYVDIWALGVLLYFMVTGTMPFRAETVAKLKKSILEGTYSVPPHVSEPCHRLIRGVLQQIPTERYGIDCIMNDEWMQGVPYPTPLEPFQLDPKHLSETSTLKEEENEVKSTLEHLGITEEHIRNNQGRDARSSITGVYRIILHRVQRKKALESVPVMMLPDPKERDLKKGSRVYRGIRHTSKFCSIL
Sequence of UniProt Q06151 (whole entry, unmodified, looked up): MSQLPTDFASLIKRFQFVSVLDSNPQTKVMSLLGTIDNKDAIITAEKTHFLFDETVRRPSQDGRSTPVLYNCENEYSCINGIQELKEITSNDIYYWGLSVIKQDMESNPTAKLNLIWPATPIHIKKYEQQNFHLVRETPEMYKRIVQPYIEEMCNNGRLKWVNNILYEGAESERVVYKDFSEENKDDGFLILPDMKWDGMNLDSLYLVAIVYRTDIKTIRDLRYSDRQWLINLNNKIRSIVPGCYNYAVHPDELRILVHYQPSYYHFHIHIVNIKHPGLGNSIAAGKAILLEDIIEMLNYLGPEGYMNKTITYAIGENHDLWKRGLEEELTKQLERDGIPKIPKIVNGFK
Sequence of UniProt Q13526 (whole entry, looked up): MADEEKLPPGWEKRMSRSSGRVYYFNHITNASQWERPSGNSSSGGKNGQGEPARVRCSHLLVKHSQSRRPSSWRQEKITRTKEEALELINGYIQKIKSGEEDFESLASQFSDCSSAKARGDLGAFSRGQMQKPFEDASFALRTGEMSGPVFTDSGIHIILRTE
Sequence of UniProt Q9NQS5 (whole entry, looked up): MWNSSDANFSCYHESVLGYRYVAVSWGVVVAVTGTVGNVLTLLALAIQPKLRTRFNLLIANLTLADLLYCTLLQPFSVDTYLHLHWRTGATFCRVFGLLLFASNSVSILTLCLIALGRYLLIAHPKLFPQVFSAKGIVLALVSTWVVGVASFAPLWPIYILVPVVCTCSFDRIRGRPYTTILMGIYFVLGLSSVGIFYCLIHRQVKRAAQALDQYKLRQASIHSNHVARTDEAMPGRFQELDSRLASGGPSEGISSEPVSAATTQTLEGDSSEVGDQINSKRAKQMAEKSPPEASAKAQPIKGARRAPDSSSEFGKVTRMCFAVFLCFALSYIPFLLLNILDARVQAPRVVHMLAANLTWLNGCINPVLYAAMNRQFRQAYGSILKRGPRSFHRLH
Sequence of UniProt P11802 (whole entry, looked up): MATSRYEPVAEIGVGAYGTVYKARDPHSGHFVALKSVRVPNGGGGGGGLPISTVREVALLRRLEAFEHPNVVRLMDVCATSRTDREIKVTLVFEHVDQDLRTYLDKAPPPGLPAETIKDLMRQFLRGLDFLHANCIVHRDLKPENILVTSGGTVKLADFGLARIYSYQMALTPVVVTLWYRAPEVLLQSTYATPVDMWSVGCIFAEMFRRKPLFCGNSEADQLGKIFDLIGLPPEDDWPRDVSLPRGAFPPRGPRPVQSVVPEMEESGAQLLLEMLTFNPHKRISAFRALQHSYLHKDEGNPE
Sequence of UniProt P29320 (whole entry, looked up): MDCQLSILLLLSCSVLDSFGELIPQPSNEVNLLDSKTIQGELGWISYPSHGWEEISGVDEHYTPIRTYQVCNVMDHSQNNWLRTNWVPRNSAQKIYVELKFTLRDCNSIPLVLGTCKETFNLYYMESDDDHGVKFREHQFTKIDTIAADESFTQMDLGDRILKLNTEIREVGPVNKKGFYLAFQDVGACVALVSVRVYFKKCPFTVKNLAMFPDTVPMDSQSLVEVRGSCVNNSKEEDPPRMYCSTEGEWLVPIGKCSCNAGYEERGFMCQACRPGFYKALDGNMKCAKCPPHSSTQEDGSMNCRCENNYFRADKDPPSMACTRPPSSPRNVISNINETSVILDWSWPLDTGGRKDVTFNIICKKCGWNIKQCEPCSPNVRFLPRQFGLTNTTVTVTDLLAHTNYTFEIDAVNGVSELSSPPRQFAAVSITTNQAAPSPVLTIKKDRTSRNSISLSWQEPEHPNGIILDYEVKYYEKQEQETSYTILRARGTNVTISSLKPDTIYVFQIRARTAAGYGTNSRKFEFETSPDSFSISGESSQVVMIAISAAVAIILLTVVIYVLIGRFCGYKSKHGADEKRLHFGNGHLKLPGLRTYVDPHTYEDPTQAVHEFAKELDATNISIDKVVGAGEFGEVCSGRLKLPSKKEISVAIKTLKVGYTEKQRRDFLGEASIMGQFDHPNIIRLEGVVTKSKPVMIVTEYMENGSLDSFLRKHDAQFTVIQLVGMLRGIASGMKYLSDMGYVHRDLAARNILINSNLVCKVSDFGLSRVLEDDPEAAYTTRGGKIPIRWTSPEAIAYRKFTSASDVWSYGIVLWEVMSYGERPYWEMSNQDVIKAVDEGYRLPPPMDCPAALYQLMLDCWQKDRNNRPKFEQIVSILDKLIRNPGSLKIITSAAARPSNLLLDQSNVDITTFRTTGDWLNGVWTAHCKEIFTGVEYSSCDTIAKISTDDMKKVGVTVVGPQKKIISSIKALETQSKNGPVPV
Sequence of UniProt Q9HAZ1 (whole entry, looked up): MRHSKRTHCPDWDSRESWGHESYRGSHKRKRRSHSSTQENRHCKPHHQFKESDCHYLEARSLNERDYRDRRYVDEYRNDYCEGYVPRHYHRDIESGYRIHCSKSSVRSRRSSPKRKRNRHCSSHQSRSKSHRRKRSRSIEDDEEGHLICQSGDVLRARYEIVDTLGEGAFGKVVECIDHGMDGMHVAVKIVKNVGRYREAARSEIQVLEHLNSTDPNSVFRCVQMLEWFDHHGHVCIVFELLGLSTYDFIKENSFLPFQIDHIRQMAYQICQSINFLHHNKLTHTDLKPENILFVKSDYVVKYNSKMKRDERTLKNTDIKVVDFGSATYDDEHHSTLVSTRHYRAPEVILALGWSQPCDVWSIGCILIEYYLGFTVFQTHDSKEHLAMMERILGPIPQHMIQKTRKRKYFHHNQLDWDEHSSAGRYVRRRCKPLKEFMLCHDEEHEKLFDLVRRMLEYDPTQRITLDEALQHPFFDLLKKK
Sequence of UniProt P02716 (whole entry, looked up): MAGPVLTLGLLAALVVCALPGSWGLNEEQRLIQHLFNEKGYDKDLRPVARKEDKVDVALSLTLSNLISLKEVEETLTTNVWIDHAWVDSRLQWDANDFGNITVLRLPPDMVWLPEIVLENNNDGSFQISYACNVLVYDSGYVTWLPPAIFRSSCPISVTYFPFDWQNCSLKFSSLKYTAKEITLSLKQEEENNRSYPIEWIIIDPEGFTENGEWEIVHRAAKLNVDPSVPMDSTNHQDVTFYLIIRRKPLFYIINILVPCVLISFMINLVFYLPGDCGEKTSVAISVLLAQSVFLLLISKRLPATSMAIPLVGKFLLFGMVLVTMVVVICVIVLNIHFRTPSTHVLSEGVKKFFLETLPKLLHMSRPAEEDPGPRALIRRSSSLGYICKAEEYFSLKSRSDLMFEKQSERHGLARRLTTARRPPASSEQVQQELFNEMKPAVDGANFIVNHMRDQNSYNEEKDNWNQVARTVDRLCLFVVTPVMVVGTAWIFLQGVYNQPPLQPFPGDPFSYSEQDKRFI
Sequence of UniProt P21553 (whole entry, unmodified, looked up): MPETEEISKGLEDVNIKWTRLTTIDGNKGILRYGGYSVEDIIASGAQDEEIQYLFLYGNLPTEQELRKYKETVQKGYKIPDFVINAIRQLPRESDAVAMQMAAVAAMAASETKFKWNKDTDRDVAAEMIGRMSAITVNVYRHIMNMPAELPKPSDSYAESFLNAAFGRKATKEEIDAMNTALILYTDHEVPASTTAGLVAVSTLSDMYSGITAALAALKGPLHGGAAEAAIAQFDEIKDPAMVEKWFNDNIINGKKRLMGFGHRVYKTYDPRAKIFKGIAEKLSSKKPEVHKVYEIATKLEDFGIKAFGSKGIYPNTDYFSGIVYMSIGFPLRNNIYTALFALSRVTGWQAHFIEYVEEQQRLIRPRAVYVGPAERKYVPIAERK
Sequence of UniProt Q99685 (whole entry, looked up): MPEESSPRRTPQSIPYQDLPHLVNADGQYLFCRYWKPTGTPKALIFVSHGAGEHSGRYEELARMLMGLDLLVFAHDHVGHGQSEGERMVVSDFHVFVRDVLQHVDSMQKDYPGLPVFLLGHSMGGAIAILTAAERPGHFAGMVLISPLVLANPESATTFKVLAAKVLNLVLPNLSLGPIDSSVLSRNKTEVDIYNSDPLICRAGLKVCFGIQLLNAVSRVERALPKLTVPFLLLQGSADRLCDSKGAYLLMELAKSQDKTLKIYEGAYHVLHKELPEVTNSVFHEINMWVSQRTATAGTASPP

Compound | target | test | test system | setting | scale | quantity | result
C[n+]1cn([C@@H]2O[C@H](COP(=O)([O-])OP(=O)(O)OP(=O)(O)OC[C@H]3O[C@@H](n4cnc5c(=O)[nH]c(N)nc54)[C@H](O)[C@@H]3O)[C@@H](O)[C@H]2O)c2nc(N)[nH]c(=O)c21 | m7GpppX diphosphatase (DCS1, Saccharomyces cerevisiae, UniProt Q06151, H268N/K126A) | binding, ITC |  |  |  | stoichiometry first site | 1.07
C#CCCCCNC(=O)CI | NCEH1 | mass spectrometry profiling | Ramos cell lysate | 100 µM over 10 µM, UniProt Q6PIU2 | reference: high over low concentration | reactivity ratio | 1.3
CCCC(=O)O | Albumin (ALB, Homo sapiens, UniProt P02768) | differential scanning calorimetry |  | concentration not given, second transition, HSA 15 µM | reference: HSA alone | melting temperature change | -2.8 °C
C[C@H]1CN(c2n[nH]c3nc(N[C@H]4CC[C@H](NS(=O)(=O)CCC(F)(F)F)CC4)ncc23)CCO1 | EPHA3 (Homo sapiens, UniProt P29320) | inhibitor, Kinobeads competition profiling |  | 0.8 µM | reference: vehicle | relative abundance | 1.03
C=C(C)[C@H]1Cc2c(ccc3c2O[C@@H]2COc4cc(OC)c(OC)cc4[C@@H]2C3=O)O1 | MGLL (Homo sapiens, UniProt Q99685) | gel-based ABPP | U-87 MG | concentration not given, 2 h, added: 10 nM LEI-463-Cy5 |  | probe labelling | decreased
[2H]c1c([2H])c([C@]2([2H])CCCN2C(=O)C(C)(C)Oc2ccc3cn[nH]c3c2)c([2H])c([2H])c1C([2H])([2H])[2H] | Myosin-IIIa (MYO3A, Homo sapiens, UniProt Q8NEV4) | KINOMEscan |  | 1 µM | reference: DMSO control | remaining binding | 78%
CC12CCC(CC1)C(C)(C)O2 | 1,8-cineole 2-endo-monooxygenase (cinA, Citrobacter braakii, UniProt Q8VQF6, Y81F) | substrate, GC-MS |  | 0 to 2 min, Y81F enzyme variant |  | product formation rate | 178 ± 15.8 min⁻¹
CC[C@@H](C)[C@@H](NC(=O)[C@@H](Cc1ccc(O)cc1)NC(=O)[C@H]1CCCN1C(=O)[C@@H](CCCNC(=N)N)NC(=O)[C@H](N)Cc1c[nH]cn1)C(=O)N[C@H](C)C(=O)N[C@H](Cc1c[nH]cn1)C(=O)N[C@H](CCCNC(=N)N)C(=O)N[C@H](CCCCNC(=O)c1cccc(S(=O)(=O)F)c1)C(=O)N[C@H](Cc1ccc(O)cc1)C(=O)N[C@H](CO)C(=O)N[C@H](Cc1ccccc1)C(N)=O | Transferrin receptor protein 1 (Tfrc, Mus musculus, UniProt Q62351) | flow cytometry | DC2.4 | 2 h, pH 6, replicate 2, unit not given | reference: 0 h | surface TFRC expression | 0.882
CC(C)(COP(=O)(O)OP(=O)(O)OCC1OC(n2cnc3c(N)ncnc32)C(O)C1OP(=O)(O)O)C(O)C(=O)NCCC(=O)NCCSC(=O)CC(O)(CC(=O)O)C(=O)O (stereo not drawn) | gltA (Thermoplasma acidophilum, UniProt P21553, D318G) | citryl-CoA hydrolysis, substrate |  | concentration not given | reference: wild type over mutant | decrease in hydrolysis activity | ~2300 fold
O=C(O)Cc1c[nH]cn1 | SLC6A6 (Homo sapiens, UniProt P31641, Y138A) | binding, microscale thermophoresis |  | 1.95 µM, room temperature, added: 50 nM labelled protein | higher = more binding | normalised MST signal | 0.0517
O=C(Nc1cccnn1)N1CCC(=Cc2cccc(Oc3ccc(C(F)(F)F)cn3)c2)CC1 | muscarinic receptor, rat | binding |  | 50 µM, added: [3H]oxotremorine M |  | inhibition | 38%
C[N+]1(C)CCN(c2ccc(C(N)=O)cc2)CC1.[I-] | Nicotinic acetylcholine receptor alpha1/beta1/epsilon/delta (Mus musculus, UniProt P02716+P04756+P09690+P20782) | ion current, inhibitor, two-electrode voltage clamp | Xenopus oocytes | 30 µM, after co-application, unit not given, added: ACh 30 µM | reference: ACh alone | ACh response | 0.547 ± 0.077
O=C1C=CC(=O)c2c(O)cccc21 | PIN1 (Homo sapiens, UniProt Q13526) | PPIase activity, inhibitor, chymotrypsin-coupled |  |  |  | IC50 | ~7 µM
COc1ccc(N2C(=O)N(c3c(C)cccc3Cl)Cc3cnc(Nc4ccc(C5CCN(C)CC5)cc4OC)nc32)nc1 | EPHA5 (Homo sapiens, UniProt P54756) | kinase activity |  | 0.5 µM |  | inhibition | 97%
CN1CCN(c2cc(-c3ccncc3)c(-c3ccc4ccccc4c3)nn2)CC1 | CYSLTR2 (Homo sapiens, UniProt Q9NS75) | agonist, FLIPR |  | 12.5 µM |  | activation | -1.7%
CC(C)(C)c1cc(C=C(C#N)C#N)cc(Br)c1O | TRPM8 (Homo sapiens, UniProt Q7Z2W7) | antagonist | HEK293 | 5 µM | reference: control | remaining activity | 82.3 ± 4.38%
O=C(Nc1cnccc1Cl)N1CCN(Cc2ccc3c(c2)OC(F)(F)O3)CC1 | PTGDR (Homo sapiens, UniProt Q13258) | radioligand binding, inhibitor |  | 10 µM, human, added: [3H]prostaglandin D2 |  | inhibition | -2%
CC[C@H](CO)Nc1nc(NCc2ccc(-c3ccccn3)cc2)c2ncn(C(C)C)c2n1 | CLK4 (Homo sapiens, UniProt Q9HAZ1) | KINOMEscan competition binding |  | 10 µM, primary screen | direction not given | binding score | 6
CN(C(=O)n1cnc(-c2ccc[n+]([O-])c2)c1)C1CCCCC1 | kainate receptor, rat | binding |  | 50 µM, added: [3H]kainic acid |  | inhibition | 4%
O=C(c1ccc(Cl)cc1)N1CCN2C(=O)N(OC(=O)N3CCOc4ccccc43)C(=O)C2C1 (stereo not drawn) | NCEH1 | MS-based ABPP | SW-620 conditioned medium | 10 µM, 1 h, 37 °C, mean protein ratio | reference: compound over DMSO | probe labelling ratio | 1.31
Cc1nn(C)cc1-c1nc2c(N3CCN(Cc4ccc(Cl)cc4)CC3)c(Cl)cnc2[nH]1 | NIM1K (Homo sapiens, UniProt Q8IY84) | KINOMEscan |  | 1 µM | reference: DMSO control | remaining binding | 100%
COc1ncccc1-c1cnn2ccc(N3CCN(C(=O)OC(C)C)CC3)nc12 | Cyclin-dependent kinase 4, with cyclin D3 (CDK4, Homo sapiens, UniProt P11802) | KINOMEscan binding |  | 1 µM | reference: untreated control | remaining binding | 100%
Cn1cc(C(=O)CCl)nn1 | UCHL1 (Homo sapiens, UniProt P09936) | covalent, intact protein LC-MS |  | 12.5 µM |  | labelling | 19.9%
COc1ccc(F)cc1C(=O)NCc1ccc(-c2nn([C@@H](C)C(F)(F)F)c(N)c2C(N)=O)cc1 | PTK6 (Homo sapiens, UniProt Q13882) | enzyme activity |  |  | reference: PTK6 over BTK | selectivity ratio | 17.2
CC1(C)C(C=C(Cl)Cl)C1C(=O)OCc1cccc(Oc2ccccc2)c1 (stereo not drawn) | uncharacterized protein (Anopheles coluzzii, UniProt A0A6E8VQK1) | enzyme activity, inhibitor | Sf9 cell homogenate | 46.51 µM, 0.1667 h, added: α-naphthyl acetate substrate | reference: no inhibitor | remaining activity | 94.3%
COc1cc(N)c(Cl)cc1C(=O)NC1CN2CCC1CC2 (stereo not drawn) | GPR84 (Homo sapiens, UniProt Q9NQS5) | β-arrestin recruitment, TANGO luminescence |  | concentration not given | reference: basal luminescence | log2 fold change | 0.113
Nc1ncc(-c2nc(N3CCOCC3)nc(N3CCOCC3)n2)c(C(F)F)n1 | ERBB3 (Homo sapiens, UniProt P21860) | KINOMEscan |  | 10 µM |  | remaining binding | 69%
